Measured values gathered from unrelated publications.
Each numbered part is a random draw from the data of one study; scales do not carry over between parts.

Set 1
Target: Centromere-binding protein 1, full length, His-tagged (CBF1, Saccharomyces cerevisiae, UniProt P17106, residues 1-351)
Chain of UniProt P17106 (whole entry, looked up): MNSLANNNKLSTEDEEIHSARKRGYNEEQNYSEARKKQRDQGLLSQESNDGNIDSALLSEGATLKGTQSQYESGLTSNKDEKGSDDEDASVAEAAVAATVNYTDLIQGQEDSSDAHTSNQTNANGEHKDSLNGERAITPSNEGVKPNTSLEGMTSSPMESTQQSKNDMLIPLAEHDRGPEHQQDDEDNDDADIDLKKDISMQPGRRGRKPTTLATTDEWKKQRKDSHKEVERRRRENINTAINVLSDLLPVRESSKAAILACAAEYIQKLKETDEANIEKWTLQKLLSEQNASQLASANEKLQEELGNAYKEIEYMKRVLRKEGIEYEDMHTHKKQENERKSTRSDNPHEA
Technique: competition protein-binding microarray
Molecule type: double-stranded DNA, one strand shown
Matrix: in vitro
Tested at: 2 µM
Setting: whole 60-bp probe, lowest competitor level
With: Pho4 competitor, 0.05 µM
Reading: higher = stronger binding
Strand	fluorescence intensity
AGAAGTTTACCAAAACACGTGCAAAGATCCTACGATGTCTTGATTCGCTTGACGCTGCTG	1770 a.u.
GTCTTGTCTCATTGCTGTGTGGGTGTCCCCACTTCAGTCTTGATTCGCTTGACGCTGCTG	90.6 a.u.
CTTTCCCGATCTTGTCTTGTGGGTGTAGCACATTTGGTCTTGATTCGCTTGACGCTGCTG	73.6 a.u.
TTAATACTGCCTGACGGCGTGCCAGAACAAGGAGCAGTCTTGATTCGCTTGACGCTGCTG	85.2 a.u.
TTACGGTAGAGGGAGCACATGGGCGGAAACAAACCTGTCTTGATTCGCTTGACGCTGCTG	120 a.u.
GTCTTGTCTCATTGTCTCGTGGGTGTCCCCACTTCAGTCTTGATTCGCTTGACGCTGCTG	112 a.u.
TTTGTTTACTAAAAACACATGTGTGTATCTTGACTGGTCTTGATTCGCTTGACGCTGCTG	220 a.u.
CATACCCAACCTTGTAGGGTGGGTGAAGATATTTGTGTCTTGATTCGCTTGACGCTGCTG	61 a.u.
AAAGCGGTAATTTGAATAGTGGGTGCAGATATCTATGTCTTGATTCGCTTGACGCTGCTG	82.5 a.u.
ATTCTCGTAATTATTCTCGTGATGGCGTTTGCAACCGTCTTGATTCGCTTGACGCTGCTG	286 a.u.
GAAATGGCAATGAAAGCCGTGCAATCAGAAACAAACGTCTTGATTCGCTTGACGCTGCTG	77.6 a.u.
ACCACAGTGTCGGCCAACGTGCTTTACATTGAAGATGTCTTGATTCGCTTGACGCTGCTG	108 a.u.
CCGTCCTTTTCACTTCACGTTCGCAGGGCTTTCCTGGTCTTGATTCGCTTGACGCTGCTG	78.5 a.u.

Set 2
Target: Histone acetyltransferase KAT6A, winged helix 1, GST fusion (KAT6A, Homo sapiens, UniProt Q92794, residues 1-85)
Technique: protein binding microarray
Molecule type: double-stranded DNA, one strand shown
Matrix: in vitro
Tested at: not given
Setting: 8-mer, flanks averaged, mean of 2 arrays, mostly near background
Baseline: not given
Reading: higher = stronger binding
Construct (chain): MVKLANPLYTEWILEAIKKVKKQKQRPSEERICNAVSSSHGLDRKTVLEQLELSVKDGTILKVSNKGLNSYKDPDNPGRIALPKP
Strand	E-score
ACAGTGGT	-0.279
GTCGAAAC	-0.154
AAAGGGAC	-0.0334
GAAATAGA	-0.242
GACTAGTC	-0.237
AGTGGCGC	0.192
AGGGATAG	-0.0773
CGTTCACC	0.0715
CAAACTTG	-0.113
GGCAACCA	0.0409
AATTGCTC	-0.156

Set 3
Target: Prothrombin, mature alpha-thrombin (F2, Homo sapiens, UniProt P00734)
Technique: aptamer microarray, sandwich
Molecule type: DNA with 2'F-ANA
Matrix: in vitro
Tested at: 200 nM
Setting: whole 15-mer aptamer, many near background
With: Cy3 exosite-II aptamer, 400 nM
Reading: higher = stronger binding
Strand: GGTTGGTGTGGTTGG
Modification	mean fluorescence intensity
2'F-ANA at 2 3 5 6 7 9 10 12 13 14 15	59.4 a.u.
2'F-ANA at 2 3 6 8 12	1060 a.u.
2'F-ANA at 1 2 6 7 8 9 10 11 12 13 14 15	55.4 a.u.
2'F-ANA at 3 4 5 8 9 10 11 13 14 15	55.1 a.u.
2'F-ANA at 1 2 4 7 8 11 13 14	58 a.u.
2'F-ANA at 1 3 6 7 8 9 10 11 12 14	94 a.u.
2'F-ANA at 1 2 3 4 5 8 9 10 11 13 14 15	46.5 a.u.
2'F-ANA at 1 3 4 9 10	82.8 a.u.
2'F-ANA at 2 4 5 6 7 8 9 10 11 12 15	55 a.u.
2'F-ANA at 1 2 4 6 8 9 10 11 12 13	51.3 a.u.
2'F-ANA at 2 6 9 12 14	161 a.u.
2'F-ANA at 1 2 6 14	83.7 a.u.
2'F-ANA at 2 3 4 6 10 12 13 15	240 a.u.
2'F-ANA at 1 2 3 6 13 15	153 a.u.
2'F-ANA at 2 3 6 7 8 9 15	774 a.u.

Other studies, line by line
Molecule	target	assay	test system	setting	how to read	measurement	result
PhoQ, residues 284 288 289 292 302 303 AGCYAI	PhoP, residues 12 14 15 18 19 SYFRT (Escherichia coli, UniProt P23836)	Sort-seq, refers to: YFP reporter	E. coli	PhoQ-PhoP variant library, with: 10 µM Mg2+	baseline: high Mg2+ state, higher = stronger signaling	fold induction	0.653

Repeated from above (set 2):
Strand	E-score
AGGGATAG	-0.0773
AGTGGCGC	0.192
GGCAACCA	0.0409
